Measurements from different studies.
Compare with care: the assays were run in different laboratories. Several values in a cell are separate wells, animals, samples, runs or records. Numbers after ± are the reported error.
BCHE: Cholinesterase (BCHE, Homo sapiens, UniProt P06276)
Sequence of UniProt P06276 (whole entry, looked up): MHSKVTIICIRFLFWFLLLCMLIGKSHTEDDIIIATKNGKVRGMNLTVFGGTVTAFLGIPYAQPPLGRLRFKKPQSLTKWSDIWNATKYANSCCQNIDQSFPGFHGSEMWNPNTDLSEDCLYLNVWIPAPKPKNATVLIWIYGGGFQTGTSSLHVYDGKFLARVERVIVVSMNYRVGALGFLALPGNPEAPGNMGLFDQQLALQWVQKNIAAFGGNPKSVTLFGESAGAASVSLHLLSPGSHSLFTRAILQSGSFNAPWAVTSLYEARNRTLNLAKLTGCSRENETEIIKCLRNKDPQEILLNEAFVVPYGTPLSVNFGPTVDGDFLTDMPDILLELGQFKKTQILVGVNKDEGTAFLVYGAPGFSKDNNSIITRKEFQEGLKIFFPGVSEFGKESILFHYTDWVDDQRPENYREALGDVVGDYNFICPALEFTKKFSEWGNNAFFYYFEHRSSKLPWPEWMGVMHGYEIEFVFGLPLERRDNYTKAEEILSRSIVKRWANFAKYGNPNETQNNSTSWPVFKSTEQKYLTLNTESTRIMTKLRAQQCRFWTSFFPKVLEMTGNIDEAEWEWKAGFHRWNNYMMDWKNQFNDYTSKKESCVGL
Sequence of UniProt Q13011 (whole entry, looked up): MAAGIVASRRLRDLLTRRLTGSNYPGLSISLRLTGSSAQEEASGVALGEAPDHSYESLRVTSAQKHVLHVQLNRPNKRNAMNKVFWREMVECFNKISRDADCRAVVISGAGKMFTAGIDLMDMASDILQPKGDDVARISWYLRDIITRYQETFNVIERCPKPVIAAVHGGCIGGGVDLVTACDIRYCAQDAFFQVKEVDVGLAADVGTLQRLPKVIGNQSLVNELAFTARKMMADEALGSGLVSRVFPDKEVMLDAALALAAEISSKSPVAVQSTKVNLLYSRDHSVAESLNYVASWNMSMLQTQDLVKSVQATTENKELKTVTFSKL

Compound	tested on	assay	system	setting	how to read	measurement	result
Nc1ccn(C[C@@H](CO)OCP(=O)(O)O)c(=O)n1	Fowlpox virus	viral infection	CEF	1.562 µM	reference: untreated	infection	108% and 101%
CC(C)n1cnc2c(NCCc3ccc(O)cc3)nc(-c3csc4ccccc34)nc21	BCHE	inhibitor		with Triton		IC50	18.8 ± 3.2 µM
COc1c(CCC[P+](c2ccccc2)(c2ccccc2)c2ccccc2)cc2c(c1OC)OCO2.[I-]	IGROV-1	SRB				TGI	-4.97 log M
CCC1=C[C@@H]2CN3CCc4c([nH]c5ccccc45)[C@@](C(=O)OC)(C2)[C@@H]13	BCHE	inhibitor, fluorometric				IC50	0.98 ± 0.32 µM
CC[C@H](C)[C@@H]1NC(=O)[C@@H]2CCCN2C(=O)[C@H](CC(C)C)NC(=O)[C@H](CC(C)C)NC(=O)CNC(=O)[C@@H](NC(=O)[C@@H](NC(=O)[C@H](CC(=O)O)NC(=O)CNC(=O)[C@@H](NC(=O)[C@H](C)NC(=O)CNC(=O)[C@H](CCCCN)NC(=O)[C@H](CC(C)C)NC(=O)[C@H](CC(C)C)NC(=O)[C@H](CCCCN)NC(=O)CNC(=O)[C@@H](NC(=O)[C@@H](N)CC(C)C)C(C)C)C(C)C)C(C)C)CSSC[C@@H](C(=O)O)NC1=O		RNA-seq, measured: Ikbke mRNA	mouse traumatic brain injury, frontal cortex and hippocampus	dose not given	reference: TBI plus compound vs TBI	log2 fold change	-2.34
C[C@H]1CN(c2n[nH]c3nc(N[C@H]4CC[C@H](NS(=O)(=O)CCC(F)(F)F)CC4)ncc23)CCO1	Delta(3,5)-Delta(2,4)-dienoyl-CoA isomerase, mitochondrial (Homo sapiens, UniProt Q13011)	biochemical				IC50	≥ 20 µM
COc1c(C)c2c(c(O)c1C/C=C(\C)CCC(=O)O)C(=O)OC2	liver cancer cell lines	cell proliferation		average over lines		IC50	0.562 µM
Nc1nccc2c1ncn2[C@@H]1O[C@H](CO)[C@@H](O)[C@H]1O	Plasmodium falciparum		D10			IC50	3.16 µM
COc1cc(CCC[P+](c2ccccc2)(c2ccccc2)c2ccccc2)c(OC)c2c1OCO2.[I-]	SK-OV-3	SRB				LC50	> -4 log M
Fc1ccc(C(OCCCc2c[nH]cn2)c2ccc(F)cc2)cc1	Plasmodium falciparum		W2			IC50	0.631 µM
Nc1ncnc2c1ncn2[C@@H]1O[C@@H]2COP(=O)(O)O[C@H]3[C@@H](O)[C@H](n4cnc5c(=O)[nH]cnc54)O[C@@H]3COP(=O)(O)O[C@H]2[C@H]1O	HFF-1	RNA sequencing, measured: Diseases of glycosylation		downregulated pathway	reference: Zika virus alone	pathway fold enrichment	5.86
Fc1ccc([C@@H]2CCNC[C@H]2COc2ccc3c(c2)OCO3)cc1	Plasmodium falciparum		7G8			IC50	6.31 µM
C#CCN(C)[C@H](C)Cc1ccccc1		footprint test	MPTP-induced Parkinson's disease mouse model	10 mg/kg		corridor crossing time	7.52 s and 5.93 s and 4.27 s and 5.85 s and 4.8 s and 5.33 s and 5.73 s
